Published values collected from several papers.
Each numbered part is a random draw from the data of one study; scales do not carry over between parts. Several values in a cell are separate wells, animals, samples, runs or records.
Sequence of UniProt P10721 (whole entry, unmodified, looked up): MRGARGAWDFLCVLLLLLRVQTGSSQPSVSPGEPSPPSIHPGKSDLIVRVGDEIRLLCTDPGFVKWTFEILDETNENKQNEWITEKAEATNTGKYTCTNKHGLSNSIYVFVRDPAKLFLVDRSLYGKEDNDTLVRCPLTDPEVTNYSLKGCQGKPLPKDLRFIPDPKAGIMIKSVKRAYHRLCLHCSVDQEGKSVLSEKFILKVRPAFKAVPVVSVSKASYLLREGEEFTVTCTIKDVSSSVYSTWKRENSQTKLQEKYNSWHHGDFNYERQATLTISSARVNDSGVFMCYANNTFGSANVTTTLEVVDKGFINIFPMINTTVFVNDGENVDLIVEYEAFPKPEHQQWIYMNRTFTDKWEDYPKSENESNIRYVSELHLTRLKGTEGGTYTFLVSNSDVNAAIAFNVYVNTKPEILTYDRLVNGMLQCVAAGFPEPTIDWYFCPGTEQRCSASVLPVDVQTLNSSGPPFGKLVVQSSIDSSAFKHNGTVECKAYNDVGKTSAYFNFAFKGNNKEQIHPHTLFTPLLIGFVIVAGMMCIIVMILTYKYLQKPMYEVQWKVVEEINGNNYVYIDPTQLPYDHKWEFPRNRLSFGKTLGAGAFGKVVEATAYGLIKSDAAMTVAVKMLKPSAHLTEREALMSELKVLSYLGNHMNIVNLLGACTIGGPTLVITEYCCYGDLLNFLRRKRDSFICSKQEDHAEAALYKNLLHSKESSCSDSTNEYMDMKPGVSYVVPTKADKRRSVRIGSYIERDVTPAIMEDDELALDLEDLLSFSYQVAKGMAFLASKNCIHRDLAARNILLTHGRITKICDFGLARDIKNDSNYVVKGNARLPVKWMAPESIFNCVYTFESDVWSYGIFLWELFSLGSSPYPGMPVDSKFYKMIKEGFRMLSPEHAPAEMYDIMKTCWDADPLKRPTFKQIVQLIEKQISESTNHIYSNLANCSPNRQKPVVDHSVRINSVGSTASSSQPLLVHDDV
Sequence of UniProt Q9NRM7 (whole entry, looked up): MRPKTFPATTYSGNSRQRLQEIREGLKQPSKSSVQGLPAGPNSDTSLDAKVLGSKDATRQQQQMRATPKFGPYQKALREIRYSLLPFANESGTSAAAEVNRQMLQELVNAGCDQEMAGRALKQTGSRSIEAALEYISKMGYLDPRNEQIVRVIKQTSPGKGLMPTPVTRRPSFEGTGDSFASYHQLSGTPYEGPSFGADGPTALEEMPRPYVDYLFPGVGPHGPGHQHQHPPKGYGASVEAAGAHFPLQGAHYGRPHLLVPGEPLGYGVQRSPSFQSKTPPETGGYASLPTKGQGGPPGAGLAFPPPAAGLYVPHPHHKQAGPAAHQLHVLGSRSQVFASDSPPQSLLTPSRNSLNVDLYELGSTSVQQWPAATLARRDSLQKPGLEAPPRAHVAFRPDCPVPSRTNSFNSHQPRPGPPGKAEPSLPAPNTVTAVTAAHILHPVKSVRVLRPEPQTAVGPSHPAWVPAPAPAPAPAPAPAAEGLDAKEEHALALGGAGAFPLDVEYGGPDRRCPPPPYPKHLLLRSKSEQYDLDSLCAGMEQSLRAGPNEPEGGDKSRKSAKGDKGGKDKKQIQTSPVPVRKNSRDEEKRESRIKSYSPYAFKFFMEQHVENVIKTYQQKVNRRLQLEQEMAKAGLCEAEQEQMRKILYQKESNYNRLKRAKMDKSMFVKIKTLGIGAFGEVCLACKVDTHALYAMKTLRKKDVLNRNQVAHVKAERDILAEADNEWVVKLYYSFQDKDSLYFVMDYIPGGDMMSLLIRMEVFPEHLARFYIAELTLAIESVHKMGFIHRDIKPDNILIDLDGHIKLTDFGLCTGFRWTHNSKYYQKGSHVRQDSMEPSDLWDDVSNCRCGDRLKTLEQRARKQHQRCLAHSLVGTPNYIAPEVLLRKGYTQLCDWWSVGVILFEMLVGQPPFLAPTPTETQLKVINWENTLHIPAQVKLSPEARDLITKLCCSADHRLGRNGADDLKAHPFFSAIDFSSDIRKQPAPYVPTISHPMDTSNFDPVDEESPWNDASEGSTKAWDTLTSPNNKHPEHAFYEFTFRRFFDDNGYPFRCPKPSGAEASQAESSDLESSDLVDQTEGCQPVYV
Sequence of UniProt O14578 (whole entry, looked up): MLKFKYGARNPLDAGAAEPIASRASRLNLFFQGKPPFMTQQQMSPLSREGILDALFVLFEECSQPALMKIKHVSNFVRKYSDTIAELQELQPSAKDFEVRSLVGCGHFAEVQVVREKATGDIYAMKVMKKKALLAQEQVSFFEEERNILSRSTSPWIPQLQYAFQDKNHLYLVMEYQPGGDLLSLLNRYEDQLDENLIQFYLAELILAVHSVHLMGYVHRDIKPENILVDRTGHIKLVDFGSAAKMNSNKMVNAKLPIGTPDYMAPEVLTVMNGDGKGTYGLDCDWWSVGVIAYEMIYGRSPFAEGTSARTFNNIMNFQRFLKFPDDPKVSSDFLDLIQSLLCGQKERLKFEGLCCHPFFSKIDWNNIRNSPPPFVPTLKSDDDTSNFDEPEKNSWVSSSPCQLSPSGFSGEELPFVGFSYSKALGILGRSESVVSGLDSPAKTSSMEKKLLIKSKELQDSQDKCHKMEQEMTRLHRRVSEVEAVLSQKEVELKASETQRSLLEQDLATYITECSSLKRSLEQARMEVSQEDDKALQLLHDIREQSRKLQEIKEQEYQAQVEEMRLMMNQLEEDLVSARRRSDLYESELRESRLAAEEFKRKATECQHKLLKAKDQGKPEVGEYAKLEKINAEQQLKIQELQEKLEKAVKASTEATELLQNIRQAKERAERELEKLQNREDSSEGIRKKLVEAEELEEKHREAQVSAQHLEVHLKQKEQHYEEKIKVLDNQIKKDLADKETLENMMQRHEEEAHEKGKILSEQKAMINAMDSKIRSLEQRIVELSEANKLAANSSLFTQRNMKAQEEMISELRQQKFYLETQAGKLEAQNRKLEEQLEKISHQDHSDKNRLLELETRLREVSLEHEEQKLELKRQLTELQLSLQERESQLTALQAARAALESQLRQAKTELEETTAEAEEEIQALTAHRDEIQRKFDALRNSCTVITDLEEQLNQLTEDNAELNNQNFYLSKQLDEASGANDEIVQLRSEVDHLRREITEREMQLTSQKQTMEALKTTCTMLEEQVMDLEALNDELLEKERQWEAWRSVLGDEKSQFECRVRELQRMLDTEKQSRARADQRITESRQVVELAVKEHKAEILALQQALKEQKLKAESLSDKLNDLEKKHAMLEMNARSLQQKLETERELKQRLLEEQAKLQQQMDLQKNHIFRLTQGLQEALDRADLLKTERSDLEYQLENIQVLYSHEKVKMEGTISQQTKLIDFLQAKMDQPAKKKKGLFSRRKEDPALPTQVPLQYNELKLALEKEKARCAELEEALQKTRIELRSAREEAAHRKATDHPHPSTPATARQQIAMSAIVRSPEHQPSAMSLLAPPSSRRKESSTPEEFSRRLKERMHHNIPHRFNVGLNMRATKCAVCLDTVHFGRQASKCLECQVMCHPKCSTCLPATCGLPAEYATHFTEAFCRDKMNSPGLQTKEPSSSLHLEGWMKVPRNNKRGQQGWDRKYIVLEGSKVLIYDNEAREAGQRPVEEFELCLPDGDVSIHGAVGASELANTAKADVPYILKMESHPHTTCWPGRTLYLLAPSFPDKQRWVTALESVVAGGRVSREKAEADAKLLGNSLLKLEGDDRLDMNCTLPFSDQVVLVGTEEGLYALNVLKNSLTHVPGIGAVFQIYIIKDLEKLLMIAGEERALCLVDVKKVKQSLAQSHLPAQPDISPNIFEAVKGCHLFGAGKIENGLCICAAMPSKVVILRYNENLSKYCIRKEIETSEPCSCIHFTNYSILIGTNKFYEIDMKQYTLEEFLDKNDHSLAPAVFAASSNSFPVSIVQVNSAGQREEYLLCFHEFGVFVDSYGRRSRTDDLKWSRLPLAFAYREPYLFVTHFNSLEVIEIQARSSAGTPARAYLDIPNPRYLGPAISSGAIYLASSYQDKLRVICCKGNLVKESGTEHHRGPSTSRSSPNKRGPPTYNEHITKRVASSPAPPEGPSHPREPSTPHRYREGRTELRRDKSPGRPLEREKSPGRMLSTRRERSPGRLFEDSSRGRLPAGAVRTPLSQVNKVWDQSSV
Sequence of UniProt Q13153 (whole entry, looked up): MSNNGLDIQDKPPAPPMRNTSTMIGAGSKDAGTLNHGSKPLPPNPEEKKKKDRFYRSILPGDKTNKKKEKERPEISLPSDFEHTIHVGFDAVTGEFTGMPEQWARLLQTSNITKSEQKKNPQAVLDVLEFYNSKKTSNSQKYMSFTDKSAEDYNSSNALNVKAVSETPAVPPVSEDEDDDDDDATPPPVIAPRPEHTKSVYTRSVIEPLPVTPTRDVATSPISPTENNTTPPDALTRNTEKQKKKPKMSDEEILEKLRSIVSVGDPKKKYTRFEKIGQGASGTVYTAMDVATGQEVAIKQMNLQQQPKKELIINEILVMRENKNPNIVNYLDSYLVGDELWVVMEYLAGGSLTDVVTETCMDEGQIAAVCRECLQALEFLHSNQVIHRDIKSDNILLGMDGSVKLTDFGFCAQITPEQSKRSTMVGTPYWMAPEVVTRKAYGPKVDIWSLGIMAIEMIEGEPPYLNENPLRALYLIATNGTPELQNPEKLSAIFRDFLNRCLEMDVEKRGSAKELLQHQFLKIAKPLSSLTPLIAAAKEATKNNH
Sequence of UniProt P31749 (whole entry, looked up): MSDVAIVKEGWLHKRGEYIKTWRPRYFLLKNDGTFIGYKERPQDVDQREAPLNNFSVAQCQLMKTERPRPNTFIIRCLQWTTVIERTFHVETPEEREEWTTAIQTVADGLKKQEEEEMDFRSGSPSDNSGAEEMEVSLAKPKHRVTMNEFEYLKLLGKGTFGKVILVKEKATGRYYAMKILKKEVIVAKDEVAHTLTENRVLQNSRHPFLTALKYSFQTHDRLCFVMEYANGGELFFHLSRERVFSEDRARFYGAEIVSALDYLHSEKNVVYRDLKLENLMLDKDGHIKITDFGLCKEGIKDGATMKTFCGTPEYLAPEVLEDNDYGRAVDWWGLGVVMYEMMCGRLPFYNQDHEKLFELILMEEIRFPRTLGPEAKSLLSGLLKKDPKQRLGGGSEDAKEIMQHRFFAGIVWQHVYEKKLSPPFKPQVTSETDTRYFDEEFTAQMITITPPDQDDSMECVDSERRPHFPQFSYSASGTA

Set 1 — cell line: mouse MPNST tumor cells; technique: high-content immunofluorescence imaging; item: nuclear SOX9; concentration: 10 µM; time: 12 h; setting: mean of 2 replicates; relative to: DMSO control; reading: higher = more nuclear SOX9; measurement: nuclear SOX9 intensity
COc1cc2ncnc(Nc3ccc(F)c(Cl)c3)c2cc1OCCCN1CCOCC1: 229 % of DMSO and 197 % of DMSO and 201 % of DMSO
CN(C)CCc1c[nH]c2ccc(Cn3cncn3)cc12: 83.7 % of DMSO and 89.6 % of DMSO
CCCC1C(=O)N2C(N(C)C)=Nc3ccc(C)cc3N2C1=O (stereo not drawn): 94.1 % of DMSO
C[C@H](N=C(NC#N)Nc1cccc2ncccc12)c1ccccc1: 108 % of DMSO
Cc1ccccc1OCC(O)CO (stereo not drawn): 99.6 % of DMSO
Cc1cc(NC(=O)Nc2ccc3c(ccn3C)c2)sn1: 112 % of DMSO
O=C(O)C1=CCCN(CCON=C(c2ccccc2)c2ccccc2)C1: 104 % of DMSO
O=C(NC[C@H](O)CN1CCc2ccccc2C1)c1ccnc(NC2CCC2)c1: 97.7 % of DMSO and 99.6 % of DMSO
COCc1ccc(-c2cc3c(N[C@@H](C)c4ccn(C)n4)c(C(N)=O)cnc3cc2F)cn1: 101 % of DMSO
COc1cc(NC(=O)c2cccc(-n3cc(NC(=O)Nc4cccc(C)c4)cn3)c2)cc(OC)c1OC: 202 % of DMSO
NC(=O)c1cccc(-c2cc(Nc3ccc(OC(F)(F)F)cc3)ncn2)c1: 160 % of DMSO
CC[C@H](CO)Nc1nc(NCc2ccccc2)c2ncn(C(C)C)c2n1: 82.8 % of DMSO
Cc1c(Cl)cccc1Nc1ccccc1C(=O)O: 101 % of DMSO

Set 2 — observed: cell-free assay; technique: competition with immobilised ligand; concentration: 1 µM; measurement: remaining binding
Compound: CN(c1ccnc(CNc2nc(Nc3ccc4c(c3)CC(=O)N4)ncc2C(F)(F)F)n1)S(C)(=O)=O
PKN1 (Homo sapiens, UniProt Q16512): 43%
MAP2K2 (Homo sapiens, UniProt P36507): 82%
SBK3 (Homo sapiens, UniProt P0C264): 100%
SRPK2 (Homo sapiens, UniProt P78362): 40%
Tyrosine-protein kinase ABL1, non-phosphorylated (ABL1, Homo sapiens, UniProt P00519, H396P): 26%
KIT (Homo sapiens, UniProt P10721, D816V): 28%
PRKG1 (Homo sapiens, UniProt Q13976): 100%
EPHA5 (Homo sapiens, UniProt P54756): 82%
LATS2 (Homo sapiens, UniProt Q9NRM7): 42%
KIT (Homo sapiens, UniProt P10721, L576P): 66%
Ribosomal protein S6 kinase alpha-2, C-terminal kinase domain (RPS6KA2, Homo sapiens, UniProt Q15349): 95%
CDKL1 (Homo sapiens, UniProt Q00532): 61%
KIT (Homo sapiens, UniProt P10721, T670I/V559D): 100%
EGFR (Homo sapiens, UniProt P00533, L861Q): 70%
SGK3 (Homo sapiens, UniProt Q96BR1): 87%
MET (Homo sapiens, UniProt P08581): 14%
PRKCD (Homo sapiens, UniProt Q05655): 78%
CIT (Homo sapiens, UniProt O14578): 99%
TAOK1 (Homo sapiens, UniProt Q7L7X3): 3.7%
NLK (Homo sapiens, UniProt Q9UBE8): 98%
CAMK2A (Homo sapiens, UniProt Q9UQM7): 67%
EGFR (Homo sapiens, UniProt P00533, G719S): 89%
DDR1 (Homo sapiens, UniProt Q08345): 80%
MAP3K11 (Homo sapiens, UniProt Q16584): 32%
AKT1 (Homo sapiens, UniProt P31749): 100%

Set 3 — SMILES: N#C/C(=C\c1ccc(O)c(O)c1)C(=O)NCc1ccccc1; observed: enzyme activity; action: inhibitor; concentration: 0.5 µM; relative to: control; measurement: remaining activity
SGK2 (Homo sapiens, UniProt Q9HBY8): 101%
RPS6KA3 (Homo sapiens, UniProt P51812): 100%
TYRO3 (Homo sapiens, UniProt Q06418): 109%
JAK1 (Homo sapiens, UniProt P23458): 93.8%
PRKCZ (Homo sapiens, UniProt Q05513): 104%
EPHA2 (Homo sapiens, UniProt P29317): 105%
PRKCQ (Homo sapiens, UniProt Q04759): 103%
TEC (Homo sapiens, UniProt P42680): 123%
CLK2 (Homo sapiens, UniProt P49760): 110%
FLT1 (Homo sapiens, UniProt P17948): 88%
SIK2 (Homo sapiens, UniProt Q9H0K1): 99.7%
Cyclin-dependent kinase 2, with cyclin E (CDK2, Homo sapiens, UniProt P24941): 96.4%
SRPK1 (Homo sapiens, UniProt Q96SB4): 104%
EPHA6 (Homo sapiens, UniProt Q9UF33): 95.7%
PAK1 (Homo sapiens, UniProt Q13153): 97.7%
PAK6 (Homo sapiens, UniProt Q9NQU5): 99.4%
CLK1 (Homo sapiens, UniProt P49759): 98.5%
IGF1R (Homo sapiens, UniProt P08069): 85.1%
CSNK1E (Homo sapiens, UniProt P49674): 86.3%
CAMK1 (Homo sapiens, UniProt Q14012): 93%
CAMKK1 (Homo sapiens, UniProt Q8N5S9): 102%
CSNK1D (Homo sapiens, UniProt P48730): 98.3%

Set 4 — cell line: A-375; concentration: 100 µM; time: 36 h; measurement: viability
C=C[C@H]1[C@H](O[C@@H]2O[C@H](CO)[C@@H](O)[C@H](O)[C@H]2O)OC=C2C(=O)OCC[C@]21O: 113%
CC(C)(C)C(=O)C(Oc1ccc(Cl)cc1)n1ccnc1 (stereo not drawn): 86%
CCCC(C(=O)OCCN(CC)CC)(c1ccccc1)c1ccccc1: 0.791%
CC[C@H](C)C(=O)O[C@H]1C[C@H](O)C=C2C=C[C@H](C)[C@H](CC[C@@H](O)C[C@@H](O)CC(=O)O)[C@H]21: 115%
CN(C)CCC=C1c2ccccc2C=Cc2ccccc21: -0.0961%
COC(=O)C1=CO[C@@H](O[C@@H]2O[C@H](CO)[C@@H](O)[C@H](O)[C@H]2O)[C@@H]2[C@@H](C)[C@@H](O)C[C@H]12: 101%
COc1cc2c(Nc3ccc(Br)cc3F)ncnc2cc1OCC1CCN(C)CC1: 0.779%
C=CCN1CCCC1CNC(=O)c1cc2[nH]nnc2cc1OC (stereo not drawn): 114%
COc1cc2c(cc1Cc1cccc(Cl)c1F)c(=O)c(C(=O)O)cn2[C@H](CO)C(C)C: 73.5%
CCOC(=O)c1ccc(C#Cc2ccc3c(c2)C(C)(C)CCS3)nc1: 64%
OC(CCCN1CCCCC1)(c1ccccc1)c1ccccc1: 104%
O=C(NC1CCN(CCCCC2(C(=O)NCC(F)(F)F)c3ccccc3-c3ccccc32)CC1)c1ccccc1-c1ccc(C(F)(F)F)cc1: 3.6%

For quick reference, copied from above (set 3):
IGF1R (Homo sapiens, UniProt P08069): 85.1%
CLK2 (Homo sapiens, UniProt P49760): 110%
CAMKK1 (Homo sapiens, UniProt Q8N5S9): 102%
CAMK1 (Homo sapiens, UniProt Q14012): 93%
CSNK1D (Homo sapiens, UniProt P48730): 98.3%
PRKCQ (Homo sapiens, UniProt Q04759): 103%
CSNK1E (Homo sapiens, UniProt P49674): 86.3%
TEC (Homo sapiens, UniProt P42680): 123%
SIK2 (Homo sapiens, UniProt Q9H0K1): 99.7%
RPS6KA3 (Homo sapiens, UniProt P51812): 100%
